Experimental data gathered from unrelated publications.
Values joined by “and” are separate records of one study, mostly repeats; a detail may differ.
Target: Serine/threonine-protein kinase Nek7 (NEK7, Homo sapiens, UniProt Q8TDX7)
Residues used in one study (Q8TDX7 1-302): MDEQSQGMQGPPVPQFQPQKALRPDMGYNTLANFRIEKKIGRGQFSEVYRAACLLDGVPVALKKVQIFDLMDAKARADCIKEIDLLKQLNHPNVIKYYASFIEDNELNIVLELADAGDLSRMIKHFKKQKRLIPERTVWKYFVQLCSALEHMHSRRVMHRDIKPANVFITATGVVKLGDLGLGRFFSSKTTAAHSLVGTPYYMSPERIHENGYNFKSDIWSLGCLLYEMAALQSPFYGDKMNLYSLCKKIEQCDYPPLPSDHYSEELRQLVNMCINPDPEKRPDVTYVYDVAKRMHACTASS

`Cc1cnc2nc1Nc1cccc(c1)COC/C=C/COCc1cc(ccc1OCCN1CCOCC1)N2` gave a remaining binding of 73% (binding; 0.1 µM).
With `CCN1CCN(Cc2ccc(C(=O)Nc3ccc(C)c(NCc4cnc5[nH]ccc5c4OC)c3)cc2C(F)(F)F)CC1` the remaining binding was 94% (binding, competition with immobilised ligand; 1 µM).
For `NC(=O)C[C@H]1CCc2sc3ncnc(O[C@H]4CC[C@H](N5CCOCC5)CC4)c3c21`, the inhibition was 6% (enzyme activity, inhibitor; 10 µM).
With `COc1cc(Nc2nccc(-c3cnn4nc(OC)ccc34)n2)cc(C(F)(F)F)c1` the remaining binding was 40% (binding, competition with immobilised ligand; 1 µM).
For `Cc1cccc(O[C@H]2CCC[C@@H](C(C)CNCc3ccncc3)C2)c1` (relative stereo), the inhibition was -16% (enzyme activity, inhibitor; 10 µM).
`CS(=O)(=O)Nc1cccc(-c2csc3cnc(Nc4ccc(N5CCN(CCCCCOc6cccc7c6C(=O)N(C6CCC(=O)NC6=O)C7=O)CC5)cc4)nc23)c1` (stereo not shown) gave an inhibition of -1.46% (probe labelling, inhibitor, KiNativ chemoproteomics; MOLT-4; 1 µM).
`Cc1ccc(-c2c(/C=C(\C#N)C(=O)NC(C)C)n(CCCO)c3ncnc(N)c23)cc1` has a remaining binding of 94% (cell-free assay, competition with immobilised ligand; 1 µM).
With `CC(C)=CC1OC(C)(C)C2C=C3C(=O)C(Cl)=CC(O)C3C3C(O)C4OC4C(=O)C132` (stereo not shown) the remaining binding was 90% (cell-free assay, competition with immobilised ligand; 10 µM).
With `C=CC(=O)Nc1cccc(-c2cnc3[nH]cc(C(=O)NC(C)(C)C)c3n2)c1` the inhibition was 3% and 1% (kinase activity; 0.1 µM).
For `O=C(Cc1ccc(OCc2ccccc2)cc1)NC1(C(=O)O)CCN(C(=O)c2ccc(-c3cccc(Cl)c3)cc2)CC1`, “activity vs control” read 122% (enzyme activity, inhibitor; 10 µM).
With `COc1ccc(C(=O)/C=C/c2ccccc2-c2c[nH]c3ccc(C#N)cc23)c(O)c1` the inhibition was -1% (enzyme activity, inhibitor; 20 µM).
`O=C=[N][Ru-4]123([n]4c5ccc(O)cc5c5c6c(c7cc(F)c[n+]1c7c54)C(=O)NC6=O)[S+]1CC[S+]2CC[S+]3CC1` (stereo not shown) gave a remaining activity of 83% (enzyme activity; 100 nM, human enzyme, added: 10 µM ATP; relative to: untreated).
The remaining activity of `COc1c(OCCCN2CCOCC2)ccc2c1N=C(NC(=O)c1cnc(N)nc1)N1CCN=C21` is reported as 112% (kinase activity, inhibitor; 1 µM; relative to: untreated control).
For `CN1C[C@@H](c2c[nH]c3cc(Br)ccc23)NC[C@@H]1c1c[nH]c2cc(Br)ccc12`, the remaining activity was 118% (enzyme activity, inhibitor; 10 µM).
`COCC12C(=O)NC3C4(C(OC)CC1O)C1CC5(O)C(OC)C(O)C(OC(C)=O)(C1C5OC(=O)c1ccccc1)C3(O)C(OC)C24` (stereo not shown) gave a remaining activity of 100% and 77% (kinase activity, inhibitor, ProQinase kinase profiling; 25 µM; relative to: control).
`COc1ccc(NC(=O)Nc2ccc3c(c2)C(=O)N(C(C)CO)CC(C)C(CN(C)Cc2ccc4c(c2)OCO4)O3)cc1` (stereo not shown) gave a remaining activity of 109% (kinase activity, KinaseProfiler; 0.03 µM, species human; relative to: control).

Excerpt of the above:
`Cc1ccc(-c2c(/C=C(\C#N)C(=O)NC(C)C)n(CCCO)c3ncnc(N)c23)cc1` has a remaining binding of 94% (cell-free assay, competition with immobilised ligand; 1 µM).
